Measurements of several laboratories.
Each line is one published result; not all experiments were run side by side. Values joined by “and” are separate records of one study, mostly repeats; a detail may differ. ± gives the spread as reported.
Chain of UniProt O94956 (whole entry, looked up): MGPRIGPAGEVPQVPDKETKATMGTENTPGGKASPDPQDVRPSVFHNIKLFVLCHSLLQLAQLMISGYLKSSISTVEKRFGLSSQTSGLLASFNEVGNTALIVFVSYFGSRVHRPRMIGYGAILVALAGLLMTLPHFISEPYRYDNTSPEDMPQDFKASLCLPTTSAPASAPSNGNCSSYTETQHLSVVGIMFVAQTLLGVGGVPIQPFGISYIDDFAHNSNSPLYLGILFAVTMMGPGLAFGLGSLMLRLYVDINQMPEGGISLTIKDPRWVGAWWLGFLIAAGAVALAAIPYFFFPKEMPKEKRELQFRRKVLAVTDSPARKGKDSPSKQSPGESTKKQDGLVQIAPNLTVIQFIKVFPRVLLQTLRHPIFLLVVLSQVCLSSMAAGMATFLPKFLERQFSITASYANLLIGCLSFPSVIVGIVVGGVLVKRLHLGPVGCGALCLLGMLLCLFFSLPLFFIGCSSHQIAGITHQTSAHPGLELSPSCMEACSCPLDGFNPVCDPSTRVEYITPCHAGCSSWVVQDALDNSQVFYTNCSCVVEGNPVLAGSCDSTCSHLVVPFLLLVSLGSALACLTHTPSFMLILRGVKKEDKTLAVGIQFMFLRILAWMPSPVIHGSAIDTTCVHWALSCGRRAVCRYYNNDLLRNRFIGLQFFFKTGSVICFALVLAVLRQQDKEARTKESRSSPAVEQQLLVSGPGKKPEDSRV
Chain of UniProt O15438 (whole entry, looked up): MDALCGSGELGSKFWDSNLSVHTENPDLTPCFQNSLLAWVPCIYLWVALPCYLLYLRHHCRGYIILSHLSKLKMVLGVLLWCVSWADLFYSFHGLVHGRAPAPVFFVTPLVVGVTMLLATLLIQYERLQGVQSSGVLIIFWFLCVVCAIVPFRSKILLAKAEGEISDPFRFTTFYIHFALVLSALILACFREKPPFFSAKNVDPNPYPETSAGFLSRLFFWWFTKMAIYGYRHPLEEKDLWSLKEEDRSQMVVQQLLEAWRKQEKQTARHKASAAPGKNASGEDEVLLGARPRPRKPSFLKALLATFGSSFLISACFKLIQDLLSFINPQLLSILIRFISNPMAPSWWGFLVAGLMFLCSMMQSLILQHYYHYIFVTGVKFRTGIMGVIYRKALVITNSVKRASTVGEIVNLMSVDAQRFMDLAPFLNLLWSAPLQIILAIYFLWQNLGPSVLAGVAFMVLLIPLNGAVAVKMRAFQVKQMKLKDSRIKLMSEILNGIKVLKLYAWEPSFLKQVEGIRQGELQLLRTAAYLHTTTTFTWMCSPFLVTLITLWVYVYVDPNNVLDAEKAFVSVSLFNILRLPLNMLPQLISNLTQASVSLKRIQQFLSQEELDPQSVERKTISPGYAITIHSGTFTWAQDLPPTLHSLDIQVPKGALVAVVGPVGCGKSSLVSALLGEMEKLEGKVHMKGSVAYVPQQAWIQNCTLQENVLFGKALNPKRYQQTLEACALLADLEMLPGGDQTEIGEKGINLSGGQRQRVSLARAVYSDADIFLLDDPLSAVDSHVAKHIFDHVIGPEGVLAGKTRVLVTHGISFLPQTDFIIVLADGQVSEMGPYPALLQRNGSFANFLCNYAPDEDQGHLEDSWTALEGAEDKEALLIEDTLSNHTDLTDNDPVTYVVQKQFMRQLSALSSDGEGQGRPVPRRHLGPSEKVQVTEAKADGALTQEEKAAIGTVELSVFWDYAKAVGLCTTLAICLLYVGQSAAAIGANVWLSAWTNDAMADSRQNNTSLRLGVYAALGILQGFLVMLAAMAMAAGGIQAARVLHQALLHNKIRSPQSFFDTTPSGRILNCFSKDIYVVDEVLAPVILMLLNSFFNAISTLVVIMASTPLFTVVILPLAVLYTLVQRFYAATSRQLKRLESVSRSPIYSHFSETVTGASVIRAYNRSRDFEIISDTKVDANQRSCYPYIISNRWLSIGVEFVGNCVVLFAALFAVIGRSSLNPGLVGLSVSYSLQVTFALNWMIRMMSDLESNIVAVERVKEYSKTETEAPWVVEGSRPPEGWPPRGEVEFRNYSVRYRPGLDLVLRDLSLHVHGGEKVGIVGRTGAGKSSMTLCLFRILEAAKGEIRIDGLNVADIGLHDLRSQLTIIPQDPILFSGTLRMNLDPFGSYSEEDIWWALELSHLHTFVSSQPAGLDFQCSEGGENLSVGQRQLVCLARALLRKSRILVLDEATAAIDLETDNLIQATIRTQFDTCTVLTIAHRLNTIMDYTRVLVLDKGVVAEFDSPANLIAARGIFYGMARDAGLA
Chain of UniProt P22310 (whole entry, looked up): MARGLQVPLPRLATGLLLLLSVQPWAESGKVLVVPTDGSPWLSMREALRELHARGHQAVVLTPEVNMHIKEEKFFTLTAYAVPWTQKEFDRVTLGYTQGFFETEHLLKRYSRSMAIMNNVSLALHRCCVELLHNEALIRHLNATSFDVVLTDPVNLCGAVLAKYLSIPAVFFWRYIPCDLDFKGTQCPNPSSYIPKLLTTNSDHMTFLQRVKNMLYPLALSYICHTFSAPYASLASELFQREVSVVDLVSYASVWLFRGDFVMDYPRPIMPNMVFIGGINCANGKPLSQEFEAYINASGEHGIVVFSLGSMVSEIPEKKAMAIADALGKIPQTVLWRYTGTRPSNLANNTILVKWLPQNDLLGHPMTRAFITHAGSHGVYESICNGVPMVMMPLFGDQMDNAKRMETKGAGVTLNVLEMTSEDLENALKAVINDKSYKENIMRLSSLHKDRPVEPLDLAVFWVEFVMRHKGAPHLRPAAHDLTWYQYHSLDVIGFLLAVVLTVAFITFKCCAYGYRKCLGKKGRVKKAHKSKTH

CCCC[C@H](NC(=O)COCCOCCNC(=O)CN1CCN(CC(=O)O)CCN(CC(=O)O)CC1)C(=O)N[C@H]1CC(=O)NCCCC[C@@H](C(N)=O)NC(=O)[C@H](Cc2c[nH]c3ccccc23)NC(=O)[C@H](CCCNC(=N)N)NC(=O)[C@@H](Cc2ccccc2)NC(=O)[C@H](Cc2c[nH]cn2)NC1=O [technetium-99m labelled] — tissue uptake (C57 mouse, spleen; intravenous, 0.037 MBq, 24 h): 0.11 ± 0.01 %ID/g
SLCO2B1 (Homo sapiens, UniProt O94956) — Vmax (O=C(c1ccc(OCCN2CCCCC2)cc1)c1c(-c2ccc(O[C@@H]3O[C@H](C(=O)O)[C@@H](O)[C@H](O)[C@H]3O)cc2)sc2cc(O)ccc12; steady-state kinetics; HEK293 cells; pH 7.4, 37 °C): 0.00014 µmol/min/mg
CCCC[C@H](NC(=O)CCCCCCCNC(=O)CN1CCN(CC(=O)O)CCN(CC(=O)O)CC1)C(=O)N[C@H]1CC(=O)NCCCC[C@@H](C(N)=O)NC(=O)[C@H](Cc2c[nH]c3ccccc23)NC(=O)[C@H](CCCNC(=N)N)NC(=O)[C@@H](Cc2ccccc2)NC(=O)[C@H](Cc2c[nH]cn2)NC1=O [technetium-99m labelled] — tissue uptake (C57 mouse, muscle; intravenous, 0.037 MBq, 0.5 h): 0.23 ± 0.15 %ID/g
UGT1A4 (Homo sapiens, UniProt P22310) — Vmax (CCCCN1C(=O)c2cccc3c(N4CCN(C)CC4)ccc(c23)C1=O; steady-state kinetics; Michaelis-Menten, UGT1A4): 9e-05 µmol/min/mg
N#C[C@@H]1CC(F)(F)CN1C(=O)CNC(=O)c1ccnc2ccc(OCCCN3CCN(C(=S)Nc4ccc(C[C@H]5CN(Cc6ccccn6)CCN(Cc6ccccn6)CCN(Cc6ccccn6)CCN5Cc5ccccn5)cc4)CC3)cc12 [lead-203 labelled] — logD (shake flask; n-octanol/PBS; pH 7.4, 203Pb-labelled): -0.76 ± 0.03
CC(C)C[C@H](NC(=O)[C@H](Cc1ccc(O)cc1)NC(=O)[C@@H](CCCNC(=N)N)NC(=O)[C@@H](CO)NC(=O)[C@H](Cc1ccccc1)NC(=O)[C@H](CC1CCCCC1)NC(=O)[C@H](CC(=O)O)NC(=O)CN1CCN(CC(=O)O)CCN(CC(=O)O)CCN(CC(=O)O)CC1)C(=O)N[C@@H](Cc1c[nH]c2ccccc12)C(=O)N[C@@H](CO)C(=O)O [copper-64 labelled] — activity concentration (human, liver; concentration not given, 1 h): 6460 Bq/mL and 10900 Bq/mL and 8020 Bq/mL and 8290 Bq/mL and 12000 Bq/mL and 13600 Bq/mL
ABCC3 (Homo sapiens, UniProt O15438) — Vmax (O=C(c1ccc(OCCN2CCCCC2)cc1)c1c(-c2ccc(O)cc2)sc2cc(O[C@@H]3O[C@H](C(=O)O)[C@@H](O)[C@H](O)[C@H]3O)ccc12; steady-state kinetics; Sf9 vesicles; pH 7, 37 °C, not purified, with: ATP): 0.000123 µmol/min/mg
CC(C)C[C@H](NC(=O)[C@@H](CCCCNC(=O)[C@@H](Cc1ccccc1)NC(=O)CCCCCNC(=O)CN1CCN(CC(=O)O)CCN(CC(=O)O)CCN(CC(=O)O)CC1)NC(=O)[C@H](Cc1ccc(O)cc1)NC(=O)[C@H](CO)NC(=O)[C@H](Cc1c[nH]c2ccccc12)NC(=O)[C@H](Cc1c[nH]cn1)NC(=O)[C@@H]1CCC(=O)N1)C(=O)N[C@@H](CCCNC(=N)N)C(=O)N1CCC[C@H]1C(=O)NCC(N)=O [indium-111 labelled] — tissue uptake (female athymic nude mice, stomach; intravenous, 0.037 MBq, 1 h): 0.97 ± 0.45 %ID/g

A few entries again:
N#C[C@@H]1CC(F)(F)CN1C(=O)CNC(=O)c1ccnc2ccc(OCCCN3CCN(C(=S)Nc4ccc(C[C@H]5CN(Cc6ccccn6)CCN(Cc6ccccn6)CCN(Cc6ccccn6)CCN5Cc5ccccn5)cc4)CC3)cc12 [lead-203 labelled] — logD (shake flask; n-octanol/PBS; pH 7.4, 203Pb-labelled): -0.76 ± 0.03
